Measured values gathered from unrelated publications.
Every numbered part comes from another study and shows a few of its results, in no order.

Series 1 — technique: RNA Bind-n-Seq; form: RNA; sample: in vitro; concentration: 365 nM; relative to: no-protein control; direction: higher = stronger binding
Target: RNA binding protein fox-1 homolog 2, RRM domain, GST-SBP tag (RBFOX2, Homo sapiens, UniProt O43251-10, residues 100-194)
Setting: natural RNA segment, single round, ends assumed
All sequences stand within: GGGAGUUCUACAGUCCGACGAUC … UGGAAUUCUCGGGUGCCAA
Residues (chain): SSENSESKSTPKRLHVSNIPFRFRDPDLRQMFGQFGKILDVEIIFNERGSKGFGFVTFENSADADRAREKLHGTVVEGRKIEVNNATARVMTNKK
Strand	RBNS enrichment (R)
UGACACCAAAAGGCUCAGCCCACCCCAACCCUAUCUCAUGUUCAGUCUGUCUAAUACAUGCCAGAGAUUUUUUUUUCAAAAAGUGCUUUAUCCCUACAAUGUACUGACAG	0.4
UUGUACAUCACACAGCCAUUUUUAUAUAAGGACACUUUUAAUAAGCUAUUUCAAAUUUGGUUUUGUUACAUUAAGUUGACUAUCAAAUACACAAAAGAUUUUUUUUGCAU	0.485
GCACCACAGCUACUCAAGAAGAUCAAAUUCAGGACAUAAACUUUAUUGAACAUAAUAACCAGUGUUUUUUAAAGACUUUUUUGUCAGGGUGCAGUAAAAUUCUCCAAUUA	0.365
AUUUUGCAACUUACCUGUGAGCCUGCAAUUAUUUGAGGUUUUUGAGCAAUUGGUGUUUCUAUGUGUUUUCUAAAUAGAGAUGAUAUCUUUUUUUUUUUCACUUAGAAUUU	0.593
UUCGGUGUUUGGCACGAGCACUGUCUCGCUGUGGCUGUGUGUCAUGAGAACUUACCAGCAGAAAUCCUUGUUCCUAAGCUACAGAAUGACCAAAAGCUGUCAAGUCCUUA	2.33
UGGUCACCUCAGUCCAGCUCUGGGGCCUCCAGGCCAUGUGGCUGUUCCCACGGCCCAGUCCUCGCUGCAGUAACCCCUGGGGGCUCUGACCACCUAUGGGGGCCGGGCAG	0.215
UGGAUACCUUUGAACUCCAUGGUUACGUGUUAGGUCCACAUUUGUGUUUUUUUCUAGCCUACCUAUAGUUGUUGGCCUUUUUGCAUAUAACUCUCGGGUAAUAUUUUGAA	3.49
UGUCUUAAAUACUUGCACUAAAUAGUGCACUGCAAGACCAGAAAAUUUUACAAUAUUUUUUCUUUACAAUAUGUUCUGUAGUAUGUUUACCCUCUUUAUGAAGUGAAUUA	0.7
GGCUAGCCAAGGGGCCACUUCUUGGUAGGAAGGUAUGACAGAGUACUUUCCCAAGUUCCUCACGAGGGUUGCAUAUGCUUUAGAGGGUCCACAAUGCUUUUGUUGUCUUG	0.641
ACUCAGGCCAGGGCCCUCCUGACGACGGUUUCCUGACUAGAAGAAAGGGACGUGGGUUUGAAGGCAGCAGCAGUGCUUACUUAACCUGCAUUUCAGCAUUUGGCAAGUUC	0.32
AUGAUGGCUAAUACUCAGGCAGAGCCCCGUAUUCUUCCCUGACUUGGUCAAAACAAACUUCCUUUUCCCUUGAUCACCCUGCACGCAGCUGCCCAGCUUCCAGUUUUUAA	3.38
UAAAAUGUGUCUAUACUUAGCAUUGUAAGGAAAAACAUCAUUACCAUAGAUAUUUAUUAUAUUUGAAAUCUAAUAUGAAUUGUUCAGAAUUUGAAACAUAAAUUUAAUAU	2.88

Series 2 — technique: protein-binding microarray; form: double-stranded DNA, one strand shown; sample: in vitro; concentration: 2200 nM top; setting: 60-bp whole probe; together with: salmon DNA 0.4 mg/ml; relative to: random background probes; direction: higher = stronger binding; all sequences stand within: GCCTAGCAC … GTCTTGATTCGCTTGACGCTGCTG
Target: Interferon regulatory factor 7, full length, phosphomimetic (IRF7, Homo sapiens, UniProt Q92985, residues 1-503, S471D/S472D/S475D/S476D/S477D/S483D/S484D/S487D)
Construct (chain): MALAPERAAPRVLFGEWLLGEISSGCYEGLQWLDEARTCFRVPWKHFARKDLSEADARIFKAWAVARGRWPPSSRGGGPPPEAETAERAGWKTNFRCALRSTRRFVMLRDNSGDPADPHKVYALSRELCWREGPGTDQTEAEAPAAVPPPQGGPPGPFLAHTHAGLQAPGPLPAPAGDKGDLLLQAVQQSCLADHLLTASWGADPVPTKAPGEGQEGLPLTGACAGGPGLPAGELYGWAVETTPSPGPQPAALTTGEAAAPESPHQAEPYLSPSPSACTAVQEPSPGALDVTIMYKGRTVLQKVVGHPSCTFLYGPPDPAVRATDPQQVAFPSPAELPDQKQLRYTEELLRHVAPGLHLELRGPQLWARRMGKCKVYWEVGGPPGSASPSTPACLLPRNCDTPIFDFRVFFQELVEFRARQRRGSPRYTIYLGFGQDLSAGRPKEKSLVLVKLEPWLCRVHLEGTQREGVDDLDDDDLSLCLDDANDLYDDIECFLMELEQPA
Strand	fitted relative affinity [z-score]
TTACGTATCGGGTTTCGGTTAGTGCTA	4.91
GTGAGTCCCACATCTCTGTCCGTGCTA	1.29
GACGAACTGAGTTTCGAGCCGTGCTAG	1.72
GACGGTCTCGACTATCGGGACGTGCTA	-0.466
TTAGCTTTCCTTATCCTTTAGTGCTAG	2.66
TTCGCTTTCTTTAACTCATTGTGCTAG	2.36
TCAGTTTTACAGGTTCTCACTGTGCTA	1.25
GACTGTTCCGGTTTCGGGACGTGCTAG	5.11
TTAGGTCTCGGTTTAGGTTAGTGCTAG	2.32
TTAGACTTCAGTTTCGATTAGTGCTAG	5.81
GACGAAGTGAGACTGGAGACGTGCTAG	-0.351
TTAGAACTGGGCTATCGATTAGTGCTA	-0.815
CCAGATTTCCCCACCATCTAGTGCTAG	1.2
TATTTTATATGCTATGTACTGGTGCTA	1.3
TTAGGACTGCTGCTGCTTTAGTGCTAG	-0.46
TTCGGTTTCCTTTTCCTTTAGTGCTAG	9.34
TTAGGACTACTTTTCCTTTAGTGCTAG	2.21
TTAGGTATCTACTATCGGTTAGTGCTA	0.56

Series 3 — technique: RNA Bind-n-Seq; form: RNA; sample: in vitro; concentration: not given; relative to: input RNA pool; direction: higher = stronger binding
Target: RING finger protein unkempt homolog, zinc fingers 1-6, GST-SBP tag (UNK, Homo sapiens, UniProt Q9C0B0, residues 30-357)
Chain of UniProt Q9C0B0 (30-357, looked up): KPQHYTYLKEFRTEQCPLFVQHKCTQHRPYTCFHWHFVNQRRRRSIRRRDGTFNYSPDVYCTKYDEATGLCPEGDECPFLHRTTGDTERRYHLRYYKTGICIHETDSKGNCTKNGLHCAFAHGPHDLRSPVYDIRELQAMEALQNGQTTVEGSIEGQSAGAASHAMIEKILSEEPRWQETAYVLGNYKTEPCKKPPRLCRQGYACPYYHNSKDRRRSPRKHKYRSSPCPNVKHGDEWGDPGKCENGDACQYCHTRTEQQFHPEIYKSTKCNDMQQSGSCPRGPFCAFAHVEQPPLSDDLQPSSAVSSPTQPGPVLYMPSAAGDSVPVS
Setting: RNA with constant flanks, human and mouse sites, ends assumed
All sequences stand within: GGGAGUUCUACAGUCCGACGAUC … CAACAGAGGAUUGAGCAUCA
Strand	bound/input enrichment
CUCUCCAGUAGAAGCUGUGAGCACACCUAACACUCCUCGAAACCUUGCUGCCUGGAAAAUUAGCAUUCCGUAUGUAGACUUUUUUGAAGAUCCCUCCUCUGAAAGGAAAGAGAAGAAGGA	2.56 ratio
UAUUUAGUUUUCUGUAGGGUUUUUUGGUUUUGGGGGGGGGGUUGUUUGUUUGUUUGUUGUUUUAGUUUUUGGAAGGAGGGAUGGACUCCACCAGUGUCAGUGUCGGUGUGUCUUAUGUCU	18.9 ratio
GUGGUGCGUAAUGAAGAACAGAAGGCGGAACAAGAAGAGGGUAAGGUGGCUCAGCGAGAGGAAGAGUUGGAGGAGACAGGUAAUCAGCACAAUGAUGUAGAAAUAGAGGAAGCAGGAGAG	0.895 ratio
AAAUACUUAGCACAGUUACUAAACAGUGUACGAUUACCAUUGUUGAGUGUUAAGUUUCUCACUAGACUAUAUGAAGCAAAUCAUCUUAUUCGUGAUGAUCGCACUUGUAAACAUCUUUUG	0.302 ratio
UGUCCCCCAUGAGGUUGUGAACCCCUCCCCCCAACUUUUCAUGUUUCUUAAAGGCAUUUUGGUUUUUUAAAAUCUGUACAGCAAGAGCAACUUUUUCUGUCAAAUAAAAAUGAGAAAUGC	0.264 ratio
UCUUUCCAAAGCAAUGUCUAAAAACUCUUUUUUUUAAAGUAACAGUUUGGUAUGUUUAUUGUAGAUAAAUUAUUUUUGAGGCCUUCAUUUUAGCUAAGUUUAGAAUUUAUAUUAGGCAAC	12.1 ratio
AGAUUUGUCAUGAGGGAAAUCAAUGAUCGUAUUAUGAAAGUGGAGUAUCACUUCCUGUCGCCCUAUGUAUCUCCAAGAGAGUCUCCUUUCCGACAUAUCUUCUGGGGCUCUGGCUCUCAC	0.186 ratio
CCAACCUCUUCAGCCUCCAUCCCUGUGACCUCAUCAGUCUCAGAUCCUGGAGUGGGCUCCAUUUCUCCAGCUUCUCCAAAGAUCUCCCUGGCCCCCACAGAUGUAAAAGAACUCUCUACC	0.367 ratio
GAAAAUCAAAAGACUAAUAUUAAUACUGUGGCUAAACAGGAACAGCGACCCAUAAAAAAGAAUAGUCUUUAUUCAACAGAUUUCAUAGUGUUUAAUGACAACGAUGGUUCAGAUGAUGAA	0.738 ratio
CUCGGCACCGGCACGCUUUACAUCGCGGAGAGCCGCCUGUCCUGGUUAGAUGGUUCGGGAUUAGGAUUCUCACUGGAAUACCCCACCAUUAGUUUACAUGCGGUGUCCAGGGAUCCAAAC	0.326 ratio
CAGUUUGGGAUCCCAUGAAGAGAGGGGUCCUUGGACAGCUCUUCUCCUCUCUUCAUCCCAUCUCUACCCCACCCCCUUGGCCCCCAGCCUCACUGCGGCUUAUACAGUACCCUAACCUGC	0.365 ratio

Series 4 — technique: protein binding microarray; form: double-stranded DNA, one strand shown; sample: in vitro; concentration: not given; relative to: not given; direction: higher = stronger binding
Target: Histone acetyltransferase KAT6A, both winged helices, GST fusion (KAT6A, Homo sapiens, UniProt Q92794, residues 1-181)
Setting: 8-mer, flanks averaged, mean of 2 arrays, mostly near background
Residues (chain): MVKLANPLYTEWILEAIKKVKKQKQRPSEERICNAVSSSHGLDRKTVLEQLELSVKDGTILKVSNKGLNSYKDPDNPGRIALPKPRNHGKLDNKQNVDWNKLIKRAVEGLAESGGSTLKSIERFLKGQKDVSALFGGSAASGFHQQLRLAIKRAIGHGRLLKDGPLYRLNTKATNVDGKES
Strand	E-score
CCTATGAA	0.0211
GGTGATGA	-0.0616
ACGGCTCA	0.185
ATATCGCG	0.348
GCCTTGTA	-0.0313
GAAGCATC	-0.148
GAATCCAC	-0.118
CGAGTGAC	-0.0282
GAACCTAC	-0.196
AATTGGGA	-0.063
CAGACATG	-0.0374
ATAGTTGG	-0.226
ATTCCGTC	0.178
CTATCAGA	0.0351
ATAATGCA	-0.139
AACACGTT	-0.0576
GAGATTCA	-0.175
TACTGCCA	-0.181
GGAATGCA	-0.0641
ACCCCTAG	-0.305
GCGGACCA	0.25
